Published values collected from several papers.
A part holds a random share of what one study measured. Values joined by “and” are separate records of one study, mostly repeats; a detail may differ.
Sequence of UniProt P53778 (whole entry, looked up): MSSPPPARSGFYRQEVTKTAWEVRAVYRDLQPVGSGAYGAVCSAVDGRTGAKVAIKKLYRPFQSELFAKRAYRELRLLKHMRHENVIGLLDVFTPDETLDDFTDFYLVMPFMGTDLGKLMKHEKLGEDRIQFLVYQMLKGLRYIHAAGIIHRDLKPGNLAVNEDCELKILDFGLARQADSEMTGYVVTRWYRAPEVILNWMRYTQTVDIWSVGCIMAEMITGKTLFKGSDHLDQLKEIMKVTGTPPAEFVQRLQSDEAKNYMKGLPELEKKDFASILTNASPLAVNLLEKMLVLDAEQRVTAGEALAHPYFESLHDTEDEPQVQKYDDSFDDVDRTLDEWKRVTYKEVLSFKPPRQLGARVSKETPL
Sequence of UniProt Q04759 (whole entry, looked up): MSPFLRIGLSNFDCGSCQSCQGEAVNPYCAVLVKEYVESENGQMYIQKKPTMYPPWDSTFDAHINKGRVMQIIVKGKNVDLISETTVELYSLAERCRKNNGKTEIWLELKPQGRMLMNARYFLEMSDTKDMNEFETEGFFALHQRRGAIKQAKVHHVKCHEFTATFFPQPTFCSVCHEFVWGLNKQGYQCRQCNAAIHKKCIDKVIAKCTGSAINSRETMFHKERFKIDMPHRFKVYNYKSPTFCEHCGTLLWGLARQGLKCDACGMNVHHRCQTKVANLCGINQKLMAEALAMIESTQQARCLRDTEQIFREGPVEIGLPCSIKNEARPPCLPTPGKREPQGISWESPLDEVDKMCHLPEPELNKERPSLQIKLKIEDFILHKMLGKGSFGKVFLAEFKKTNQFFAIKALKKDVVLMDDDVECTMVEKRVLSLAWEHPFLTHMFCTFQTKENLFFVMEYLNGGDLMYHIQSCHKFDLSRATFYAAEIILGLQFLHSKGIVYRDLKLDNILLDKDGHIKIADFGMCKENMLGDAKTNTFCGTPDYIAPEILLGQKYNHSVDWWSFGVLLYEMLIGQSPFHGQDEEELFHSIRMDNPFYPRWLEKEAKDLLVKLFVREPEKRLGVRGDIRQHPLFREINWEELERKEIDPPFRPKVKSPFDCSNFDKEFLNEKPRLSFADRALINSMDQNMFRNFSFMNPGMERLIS
Sequence of UniProt Q99759 (whole entry, looked up): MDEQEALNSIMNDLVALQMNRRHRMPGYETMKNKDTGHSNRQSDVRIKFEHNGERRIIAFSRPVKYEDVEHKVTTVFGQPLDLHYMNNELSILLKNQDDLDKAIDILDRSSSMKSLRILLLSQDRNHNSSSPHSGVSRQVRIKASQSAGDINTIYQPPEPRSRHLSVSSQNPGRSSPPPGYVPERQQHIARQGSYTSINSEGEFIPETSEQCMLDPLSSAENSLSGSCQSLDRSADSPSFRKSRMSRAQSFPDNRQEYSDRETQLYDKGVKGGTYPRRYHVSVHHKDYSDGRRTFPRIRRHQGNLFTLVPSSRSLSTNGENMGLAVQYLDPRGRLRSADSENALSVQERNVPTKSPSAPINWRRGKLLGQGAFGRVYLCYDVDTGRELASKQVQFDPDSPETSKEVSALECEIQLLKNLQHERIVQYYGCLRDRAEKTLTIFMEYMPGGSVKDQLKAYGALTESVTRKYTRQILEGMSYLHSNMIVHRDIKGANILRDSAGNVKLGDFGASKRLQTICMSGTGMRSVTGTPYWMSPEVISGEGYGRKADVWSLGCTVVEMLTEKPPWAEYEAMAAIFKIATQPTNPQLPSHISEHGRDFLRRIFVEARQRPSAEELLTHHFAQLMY
Sequence of UniProt P51956 (whole entry, looked up): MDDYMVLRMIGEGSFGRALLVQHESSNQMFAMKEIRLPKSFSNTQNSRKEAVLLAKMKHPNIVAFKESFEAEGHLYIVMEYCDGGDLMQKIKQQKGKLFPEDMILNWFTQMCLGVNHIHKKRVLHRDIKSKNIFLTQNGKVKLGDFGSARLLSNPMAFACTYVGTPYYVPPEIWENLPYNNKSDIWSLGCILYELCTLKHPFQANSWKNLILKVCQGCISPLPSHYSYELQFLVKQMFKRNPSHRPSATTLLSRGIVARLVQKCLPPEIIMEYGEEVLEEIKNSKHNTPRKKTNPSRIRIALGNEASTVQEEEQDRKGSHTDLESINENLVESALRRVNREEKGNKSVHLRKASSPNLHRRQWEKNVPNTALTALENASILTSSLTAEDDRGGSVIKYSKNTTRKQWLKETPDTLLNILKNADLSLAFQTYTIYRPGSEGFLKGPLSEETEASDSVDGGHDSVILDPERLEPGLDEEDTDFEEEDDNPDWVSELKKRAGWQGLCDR
Sequence of UniProt P36896 (whole entry, looked up): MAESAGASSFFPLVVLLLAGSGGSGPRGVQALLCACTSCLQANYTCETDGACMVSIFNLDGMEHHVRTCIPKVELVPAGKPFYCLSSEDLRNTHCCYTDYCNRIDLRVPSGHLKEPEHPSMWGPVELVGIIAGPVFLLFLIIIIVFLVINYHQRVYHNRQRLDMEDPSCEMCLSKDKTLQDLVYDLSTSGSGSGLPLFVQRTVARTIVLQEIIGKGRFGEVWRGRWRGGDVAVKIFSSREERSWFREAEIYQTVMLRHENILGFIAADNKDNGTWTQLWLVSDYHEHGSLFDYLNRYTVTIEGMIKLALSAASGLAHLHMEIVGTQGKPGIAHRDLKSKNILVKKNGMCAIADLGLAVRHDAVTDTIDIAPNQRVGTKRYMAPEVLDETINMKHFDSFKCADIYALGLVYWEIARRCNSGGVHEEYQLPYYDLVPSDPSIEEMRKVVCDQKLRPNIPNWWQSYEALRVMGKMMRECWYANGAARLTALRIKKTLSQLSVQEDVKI
Sequence of UniProt Q13164 (whole entry, looked up): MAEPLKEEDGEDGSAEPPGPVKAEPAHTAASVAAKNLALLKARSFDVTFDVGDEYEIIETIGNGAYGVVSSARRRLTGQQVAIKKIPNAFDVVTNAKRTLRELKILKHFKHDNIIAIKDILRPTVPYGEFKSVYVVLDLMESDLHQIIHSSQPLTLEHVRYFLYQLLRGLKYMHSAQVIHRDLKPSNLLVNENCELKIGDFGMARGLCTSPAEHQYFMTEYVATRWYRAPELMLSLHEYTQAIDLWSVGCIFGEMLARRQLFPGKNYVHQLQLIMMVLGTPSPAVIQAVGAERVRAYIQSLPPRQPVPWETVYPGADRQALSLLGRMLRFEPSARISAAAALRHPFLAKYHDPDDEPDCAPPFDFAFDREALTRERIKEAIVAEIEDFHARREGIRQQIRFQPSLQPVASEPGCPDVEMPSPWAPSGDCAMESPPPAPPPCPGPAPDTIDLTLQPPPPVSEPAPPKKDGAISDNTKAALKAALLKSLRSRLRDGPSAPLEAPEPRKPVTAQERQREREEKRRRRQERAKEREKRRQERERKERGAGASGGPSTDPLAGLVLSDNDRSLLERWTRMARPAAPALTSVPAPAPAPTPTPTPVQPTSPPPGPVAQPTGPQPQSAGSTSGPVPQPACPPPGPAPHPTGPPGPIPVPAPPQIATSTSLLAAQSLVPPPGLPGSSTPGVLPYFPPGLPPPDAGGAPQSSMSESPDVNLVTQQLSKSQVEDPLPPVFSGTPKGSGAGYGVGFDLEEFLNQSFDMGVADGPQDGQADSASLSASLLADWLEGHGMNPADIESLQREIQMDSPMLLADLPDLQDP
Sequence of UniProt P57078 (whole entry, looked up): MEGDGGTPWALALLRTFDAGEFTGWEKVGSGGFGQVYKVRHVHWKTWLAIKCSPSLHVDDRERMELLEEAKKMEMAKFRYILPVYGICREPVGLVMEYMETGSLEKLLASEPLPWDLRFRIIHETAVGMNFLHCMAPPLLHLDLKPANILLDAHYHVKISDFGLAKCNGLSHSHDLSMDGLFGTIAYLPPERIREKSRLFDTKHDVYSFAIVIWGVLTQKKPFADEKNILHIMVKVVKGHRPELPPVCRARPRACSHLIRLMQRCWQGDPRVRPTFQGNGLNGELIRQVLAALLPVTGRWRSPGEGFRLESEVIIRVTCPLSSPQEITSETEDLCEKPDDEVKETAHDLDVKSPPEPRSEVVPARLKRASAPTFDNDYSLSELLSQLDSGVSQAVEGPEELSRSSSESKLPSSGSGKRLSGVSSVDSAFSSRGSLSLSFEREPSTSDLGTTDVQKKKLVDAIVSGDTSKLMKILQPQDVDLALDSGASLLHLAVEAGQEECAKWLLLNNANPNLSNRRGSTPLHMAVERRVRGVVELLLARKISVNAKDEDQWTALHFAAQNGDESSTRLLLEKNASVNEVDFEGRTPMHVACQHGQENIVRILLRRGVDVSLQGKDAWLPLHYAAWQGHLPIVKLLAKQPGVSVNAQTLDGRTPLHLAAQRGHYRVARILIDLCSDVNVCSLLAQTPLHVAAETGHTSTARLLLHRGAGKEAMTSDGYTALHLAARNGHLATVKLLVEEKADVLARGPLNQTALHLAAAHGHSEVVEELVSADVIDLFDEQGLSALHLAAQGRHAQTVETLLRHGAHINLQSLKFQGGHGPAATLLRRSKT
Sequence of UniProt P68400 (whole entry, looked up): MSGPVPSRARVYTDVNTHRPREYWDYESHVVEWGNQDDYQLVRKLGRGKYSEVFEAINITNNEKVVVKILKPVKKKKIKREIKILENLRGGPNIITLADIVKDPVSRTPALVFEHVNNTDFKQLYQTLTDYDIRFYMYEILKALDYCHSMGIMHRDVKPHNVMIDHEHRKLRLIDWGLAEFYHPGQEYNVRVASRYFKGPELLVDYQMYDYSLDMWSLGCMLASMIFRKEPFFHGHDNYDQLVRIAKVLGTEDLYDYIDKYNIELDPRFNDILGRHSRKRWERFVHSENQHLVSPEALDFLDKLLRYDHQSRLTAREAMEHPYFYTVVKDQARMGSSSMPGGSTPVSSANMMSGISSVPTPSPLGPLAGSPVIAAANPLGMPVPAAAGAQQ

Series 1
Compound: C[C@H](c1cccc(C#N)c1)n1cc(Cl)cc(C(N)=O)c1=N
Observed: cell-free assay
Method: competition with immobilised ligand
Tested at: 1 µM
Measurement: remaining binding
MUSK (Homo sapiens, UniProt O15146): 100%
RIPK4 (Homo sapiens, UniProt P57078): 71%
MAPK12 (Homo sapiens, UniProt P53778): 100%
MAP3K3 (Homo sapiens, UniProt Q99759): 91%
CDK5 (Homo sapiens, UniProt Q00535): 100%
HIPK3 (Homo sapiens, UniProt Q9H422): 81%
MAPK7 (Homo sapiens, UniProt Q13164): 88%
LATS1 (Homo sapiens, UniProt O95835): 74%
EPHB3 (Homo sapiens, UniProt P54753): 78%
PRKCQ (Homo sapiens, UniProt Q04759): 97%
PIP5K1C (Homo sapiens, UniProt O60331): 99%
Tyrosine-protein kinase ABL1, non-phosphorylated (ABL1, Homo sapiens, UniProt P00519): 100%
ACVR1B (Homo sapiens, UniProt P36896): 100%
CSNK2A1 (Homo sapiens, UniProt P68400): 67%
CSF1R (Homo sapiens, UniProt P07333): 100%
NEK3 (Homo sapiens, UniProt P51956): 66%

Series 2
Cell line: mouse MPNST tumor cells
Method: high-content nuclear imaging
Refers to: cell number
Tested at: 10 µM
Time: 12 h
Setting: mean of 2 replicates
Baseline: plate mean
Reading: higher = more cells
Measurement: nuclei count
CCN(CC)C(=S)SSC(=S)N(CC)CC: -5.6 z-score
CCC(NC(C)C)C(O)c1ccc(O)c(O)c1 (centres unmarked): 0.343 z-score
CNCCN1CCC(OCc2ccccc2)CC1: 2.02 z-score
Cc1nnn(-c2ccc(-c3ccc(C4(C(=O)O)CC4)cc3)cc2)c1NC(=O)O[C@H](C)c1ccccc1: 0.661 z-score
C[C@H](N=C(NC#N)Nc1cccc2ncccc12)c1ccccc1: 3.93 z-score
O=C(O)c1ccc2c(c1)C(=O)N(c1cccc(Oc3ccc([N+](=O)[O-])cc3)c1)C2=O: 1.23 z-score
CCn1c(=O)n(C2CCCN(c3nccc(-c4cc5ccccc5o4)n3)C2)c2ccccc21 (centres unmarked): 4.06 z-score

Series 3
Host: human
Medium: microsomes or S9
Tested at: 2 µM
Time: 0.5 h
Measurement: remaining compound
Cn1c(=O)c2c(n(C)c1=O)n(CC(=O)NC(C)(C)C)c(=O)n2C: 41.5%
O=C(OCCCn1ccccc1=O)c1cncc2ccccc12: 3.09%
CCOC(=O)Cn1ccc2cc(N3C(=O)N4CCCC4(C)C3=O)ccc21 (centres unmarked): 12.4%
CC1CCc2cc(F)ccc2N1S(=O)(=O)c1ccc(S(=O)(=O)NC2CCCCC2)cc1 (centres unmarked): 95.3%
COc1ccc(CCc2nc(CCS(C)(=O)=O)c(O)c(C(=O)O)c2C(=O)O)cc1: 92.2%
O=C(NC1(c2nnc[nH]2)CCC1)c1cncc(F)c1: > 100%
Cc1cc(C(=O)O)nn1-c1ccc(S(C)(=O)=O)cc1: 63.8%

Single results of other studies
Organism: Leishmania donovani
Observed: parasite viability
Method: resazurin
Strain: DD8
Medium: promastigotes
Tested at: 66.66 µM
c1ccc(Oc2ccc(Nc3c4c(nc5ccccc35)CCC4)cc2)cc1  normalised inhibition: 100% and 99%
CCOc1ccc(Nc2c3c(nc4ccccc24)CCC3)cc1  normalised inhibition: 100%

Some of these lines once more (series 1):
Tyrosine-protein kinase ABL1, non-phosphorylated (ABL1, Homo sapiens, UniProt P00519): 100%
ACVR1B (Homo sapiens, UniProt P36896): 100%
CSNK2A1 (Homo sapiens, UniProt P68400): 67%
CSF1R (Homo sapiens, UniProt P07333): 100%
